Results of several laboratories.
Each numbered part is a random draw from the data of one study; scales do not carry over between parts.

Series 1
Target: Interferon regulatory factor 5, full length, phosphomimetic (IRF5, Homo sapiens, UniProt Q13568-2, residues 1-514, S451D/S453D/S456D/S462D)
Technique: protein-binding microarray
Form: double-stranded DNA, one strand shown
Sample: in vitro
Concentration: 940 nM top
Notes: 60-bp whole probe
Added: salmon DNA 0.4 mg/ml
Reference: random background probes
Reading: higher = stronger binding
Endpoint: fitted relative affinity
Constant ends, left off below: GCCTAGCAC … GTCTTGATTCGCTTGACGCTGCTG
Sequence = GACGGATTCGACACTGGGGACGTGCTA; result = 0.05 z-score
Sequence = AGAAATTTTTTTTCTAACTAGTGCTAG; result = -0.125 z-score
Sequence = GACGGTTTCAACTTTCGGGACGTGCTA; result = 3.16 z-score
Sequence = TTTGAACTGGGGTTTCGATTAGTGCTA; result = 5.7 z-score
Sequence = TTAGGACTAGGGACTGGGTTAGTGCTA; result = -0.756 z-score
Sequence = TTGTCTTTTCATTTTCTTTAGTGCTAG; result = 2.11 z-score
Sequence = TCAAGTCCCATGTTGCAGACTGTGCTA; result = 0.0895 z-score
Sequence = TCATCTCTGGGTCGGGCACTGTGCTAG; result = 0.199 z-score
Sequence = GACGGTTGCGGTTCCGGGACGTGCTAG; result = 1.54 z-score
Sequence = TTAGATTCCCTTTTCCTTTAGTGCTAG; result = 0.846 z-score
Sequence = TGAGATTTCAGTCTCGATTAGTGCTAG; result = 3.42 z-score
Sequence = GACTGTATCGACTTTCGGGACGTGCTA; result = 1.92 z-score
Sequence = TTAGGACTGGGTACTGGGTTAGTGCTA; result = -0.492 z-score
Sequence = GACGGACTGAGTTTCGGGACGTGCTAG; result = 3.42 z-score
Sequence = GACGATTTCGGGACTGGACACGTGCTA; result = 0.305 z-score
Sequence = ATAGATATCAGTTTCGATTAGTGCTAG; result = 8.29 z-score
Sequence = TTAGGTTCCCTTTTCCGTTAGTGCTAG; result = 0.997 z-score
Sequence = CTTTACTTCACTCTCTGCTTGTGCTAG; result = 2.05 z-score

Series 2
Target: RNA binding protein fox-1 homolog 2, RRM domain, GST-SBP tag (RBFOX2, Homo sapiens, UniProt O43251-10, residues 100-194)
Technique: RNA Bind-n-Seq
Form: RNA
Sample: in vitro
Concentration: 365 nM
Notes: natural RNA segment, single round, ends assumed
Reference: no-protein control
Reading: higher = stronger binding
Endpoint: RBNS enrichment (R)
Residues (chain): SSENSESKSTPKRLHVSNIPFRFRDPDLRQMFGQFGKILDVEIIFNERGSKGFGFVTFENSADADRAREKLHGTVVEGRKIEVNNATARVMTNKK
Sequence = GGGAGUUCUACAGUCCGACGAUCUUUAUAAACAGCUUAAUAUAAAACAUUAUAGAUUUAGUGUUUGGCUUUUUUCCUUAUAAGUUUAUAAGUUUGAUUUCAGAUGUUGGAAAUGUGUGCUUUAUAGUGUUUACUGGAAUUCUCGGGUGCCAA; result = 0.593
Sequence = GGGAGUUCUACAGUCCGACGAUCGCUGGGAACAAGAGCAGCCCACUCUGCAGGAAUGCAACCUGAGCUGCAAACCAGGAGAAAAGGAGACUCAUUUAGGAUCUGAUCUGUAAGUACAUUGGAAAGGAAAGAAAUGGAAUUCUCGGGUGCCAA; result = 0.412
Sequence = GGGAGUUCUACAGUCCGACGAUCACCCAUCAAUAUGGAAUUUUGGGAGCCGACCUGAGUGCAAAUCCUAAUUCUGCCCCUGUUGGUGCAGAUGGCUGUGGGCGGCUCACUUGACCUUUUAGAGUCUGCAUACCUGGAAUUCUCGGGUGCCAA; result = 0.39
Sequence = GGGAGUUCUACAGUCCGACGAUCCCUAUAGAUUCUGUAGCAUUUGAGUGUGGCAAUAUUUUAAUUGUGUAUAGAUUUCUAAGAACCAACACUACUCAGUCUCCUGCUAGUCUGACUCCUGAAGCAUCAGCCCUUGGAAUUCUCGGGUGCCAA; result = 0.509
Sequence = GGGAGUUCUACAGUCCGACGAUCUGCCUCGGCUGCGACGUGUCCAGGCGUGGAGAGUUUUGUGUUUCUCCUGUUCAGUAUCCGAGUCUCGUGCAGUGCUGCGUAGGUUAGCCCGCAUCGUGCAGACAACCUCAUGGAAUUCUCGGGUGCCAA; result = 0.961
Sequence = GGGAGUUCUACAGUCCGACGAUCGAAUAUCCACCUUCAUUUCAACAGUUCCUUGGUUACACACUCAAUCUUUACGUUUGUACUGCUUACCUUUACUUUCUCCACAACAGAGACAAGCAGAUUGGUUGAACCUUUGGAAUUCUCGGGUGCCAA; result = 0.48
Sequence = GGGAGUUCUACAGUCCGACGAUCACCCACAGAUAACACAUGUUGUUUCUACUUGUAAAUGUAAAGUCUUUAAAAUAAACUAUUACAGAUACUUACGUUGUGGUGUUUCUUUCCUCAUGGACCAUGAUGAAAAUUGGAAUUCUCGGGUGCCAA; result = 0.303
Sequence = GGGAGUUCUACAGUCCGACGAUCUAAGAAAACUCGACUUGUUUUUUGUUCAUUUUAAGUGUGUGGUACUAAAAAGACAUGUUAGACUUUUUUUAAAAAAGCACUUAUGUUUUGAAAAUAGAAUAAAUAAUAAGUGGAAUUCUCGGGUGCCAA; result = 0.684
Sequence = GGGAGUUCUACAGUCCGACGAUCGUCAUGUAUGUGGUUUGGAGGCAGAAUUCUUGAACAUCUUUUGAUGAAGAACAAGGUGGUAUGAUCUUACUAUAUAAGAAAAACAAAACUUCAUUCUUGUGAGUCAUUUAUGGAAUUCUCGGGUGCCAA; result = 0.365
Sequence = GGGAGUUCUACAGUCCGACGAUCGGAAGGGCUGUCGGGACAUACUUUCUACAUAACGCUACAACCCUGACCAAGCAAAGACAUGCUUGUUACAGGCUAUUUUCUAUAUUUAUUGUGGGAGAGUCACUUUAAAGUGGAAUUCUCGGGUGCCAA; result = 0.656
Sequence = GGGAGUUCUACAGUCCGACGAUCGCCAGAGGGUCCCUGCCCCGAGUGACACCCCAUCCCCUCCCAUCCCCCGGCGCGUGUGUGUAGAGCCUCAGGGCUGAGUGCCCAAUAAAGGUGGCGGCAAGGCUGCGGUGUGGAAUUCUCGGGUGCCAA; result = 0.343
Sequence = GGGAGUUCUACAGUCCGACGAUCUAGACUGGAGUUCAAGCAAGUAACAGCAGUGUGUGUCUUAGGAACUGAGAUUCCAGAUAGAGAGGCUUCGGUUCCUGCUACUUCCCUGUUUGUCUGGGGAGUAGAGGAAUUGGAAUUCUCGGGUGCCAA; result = 1.21

Series 3
Target: Ras GTPase-activating protein-binding protein 1, full length (G3BP1, Homo sapiens, UniProt Q13283)
UniProt Q13283, sequence (whole entry, looked up): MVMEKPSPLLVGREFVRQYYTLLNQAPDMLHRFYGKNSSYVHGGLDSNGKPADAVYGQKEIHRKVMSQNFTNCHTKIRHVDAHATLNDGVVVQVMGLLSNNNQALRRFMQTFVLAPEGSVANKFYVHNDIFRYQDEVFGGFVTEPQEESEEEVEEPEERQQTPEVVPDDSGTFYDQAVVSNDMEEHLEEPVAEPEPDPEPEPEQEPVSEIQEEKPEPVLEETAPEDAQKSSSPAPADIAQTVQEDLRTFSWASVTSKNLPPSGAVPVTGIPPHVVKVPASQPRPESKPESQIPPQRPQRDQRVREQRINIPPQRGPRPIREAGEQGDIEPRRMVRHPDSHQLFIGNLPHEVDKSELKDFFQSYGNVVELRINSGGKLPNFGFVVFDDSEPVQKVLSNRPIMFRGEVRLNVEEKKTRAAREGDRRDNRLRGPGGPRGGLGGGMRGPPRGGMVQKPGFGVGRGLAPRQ
Technique: RNA Bind-n-Seq
Form: RNA
Sample: in vitro
Concentration: 200 nM
Notes: whole 134-nt RNA, ends assumed
Added: 150 mM LiCl
Reference: input library
Reading: higher = stronger binding
Endpoint: log2 enrichment
All molecules: 7-deaza-guanosine replaces G
Sequence = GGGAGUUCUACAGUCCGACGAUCUAACUUUAGAGGAGGAUCUGAUGGAUAUGGCAGUGGACGUGGAUUUGGGGAUGGCUAUAAUGGGUAUGGUGGAGGACCUGGAGGUGGCAAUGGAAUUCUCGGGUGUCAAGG; result = -0.0696
Sequence = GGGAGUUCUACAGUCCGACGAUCAAGUCCUGUGCUACACAUCGUAUGUACCGAAUCGGGGCCCCGGCCCCGGGCCCCGGGAAAGUAUUAUGUUACGCCGUUCGGAUCUGCACUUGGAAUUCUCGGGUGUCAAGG; result = -1.46
Sequence = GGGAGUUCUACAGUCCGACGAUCAGUCCUGUGCUACACAUCGUAUGUACCGAAUCGGAAAAAGGGAAAAAGGGAAAAAGGGAAAGUAUUAUGUUACGCCGUUCGGAUCUGCACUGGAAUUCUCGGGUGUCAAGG; result = -0.596
Sequence = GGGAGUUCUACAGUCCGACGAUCCACAGACAACACGCACCCACACAGACACAGAGGGAAGGGGUUGGGAUGGGGACAGGGUGCUCAGCAGGGCGGGGUAGGACCCCAGCCCCUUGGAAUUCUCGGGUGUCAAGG; result = 0.487
Sequence = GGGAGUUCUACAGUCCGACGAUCCUGUGCUACACAUCGUAUGUACCGAAUCGGGGAAAAAAGGGGAAAAAAGGGGAAAAAAGGGAAAGUAUUAUGUUACGCCGUUCGGAUCUGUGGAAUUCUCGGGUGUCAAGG; result = 0.387
Sequence = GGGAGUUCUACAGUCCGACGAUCAAGUCCUGUGCUACACAUCGUAUGUACCGAAUCGGGAGGGUUUGGGUUUUUUUGGGAAAGUAUUAUGUUACGCCGUUCGGAUCUGCACUUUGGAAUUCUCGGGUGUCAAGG; result = -0.428
Sequence = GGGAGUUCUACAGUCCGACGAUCCAAGUCCUGUGCUACACAUCGUAUGUACCGAAUCGGCCCCGGCCCCGGGCCCCGGGAAAGUAUUAUGUUACGCCGUUCGGAUCUGCACUUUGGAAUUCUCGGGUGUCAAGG; result = -1.02
Sequence = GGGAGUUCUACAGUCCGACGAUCAGUCCUGUGCUACACAUCGUAUGUACCGAAUCGGGGUGGGGUGGGGUUUUUUUGGGGAAAGUAUUAUGUUACGCCGUUCGGAUCUGCACUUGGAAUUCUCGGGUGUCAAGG; result = 0.431
Sequence = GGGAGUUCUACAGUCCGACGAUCGUCCUGUGCUACACAUCGUAUGUACCGAAUCGGCCCCCGGGGCCCCCGGCCCCCGGGGAAAGUAUUAUGUUACGCCGUUCGGAUCUGCACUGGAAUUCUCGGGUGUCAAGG; result = -1.8
Sequence = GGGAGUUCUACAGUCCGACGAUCUCCUGUGCUACACAUCGUAUGUACCGAAUCAAAUUUUUUUAAAUUUUUAAACCCCCAAAAAAGUAUUAUGUUACGCCGUUCGGAUCUGCAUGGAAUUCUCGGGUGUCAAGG; result = 1.09
Sequence = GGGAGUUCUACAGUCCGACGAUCUGGCCCUGGUGGCAUGCGGGGAGGAAGAGGUGGCCUCAUGGAUCGUGGUAGUCCCGGUGGAAUGUUCAGAGGUGGCCGUGGUGGAGACAGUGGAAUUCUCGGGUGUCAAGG; result = 0.898

Single results of other studies
Sequence = GGTCCGTCGGACC (dsDNA); target = KAT6A 1-85 (Homo sapiens, UniProt Q92794); technique = X-ray crystallography; form = double-stranded DNA, one strand shown; endpoint = binding; result = binds

A few entries again (series 1):
Sequence = GACTGTATCGACTTTCGGGACGTGCTA; result = 1.92 z-score
Sequence = TTAGGACTGGGTACTGGGTTAGTGCTA; result = -0.492 z-score
Sequence = GACGGACTGAGTTTCGGGACGTGCTAG; result = 3.42 z-score
Sequence = GACGATTTCGGGACTGGACACGTGCTA; result = 0.305 z-score
Sequence = ATAGATATCAGTTTCGATTAGTGCTAG; result = 8.29 z-score
Sequence = TTAGGTTCCCTTTTCCGTTAGTGCTAG; result = 0.997 z-score
